Results collected from several papers.
Lines come from different studies, so protocols differ. ± marks the error that the study gave.

SMILES	assay	test system	setting	how to read	endpoint	value
C=CCn1c(=O)c2cnc(Nc3ccc(N4CCN(C)CC4)cc3)nc2n1-c1cccc(C(C)(C)O)n1		human, plasma	oral, across treatment cohorts		Tmax	1.9 to 3 h
CCc1nc(C(N)=O)c(Nc2ccc(N3CCC(N4CCN(C)CC4)CC3)c(OC)c2)nc1NC1CCOCC1		Japanese patients, plasma	oral, 300 mg, cycle 0 day -2, single dose, mean		AUC(0-24)	5370 ng·h/mL
CC(C)(C(=O)N1CCOc2c(C#N)cncc2C1)C(F)F	item: ventricular extrasystoles	healthy humans, both sexes	oral, 30 mg single dose		subjects with TEAE	0%
N#C[C@@]1(c2ccc3c(N)ncnn23)O[C@H](CO)[C@@H](O)[C@H]1O	plasma protein binding	dog plasma	100 µM		bound fraction	0.0433
FC(F)(F)c1ccc(CNc2ccc(Cc3c[nH]c4ncc(Cl)cc34)cn2)cn1	item: Insomnia	patients with advanced solid tumours, non-TGCT cohort	oral, 1000 mg/day, grade 3 or higher		treatment-related adverse events	2%
CCCCCCCCCCCCCCCC(=O)N[C@@H](CCC(=O)NCCCC[C@@H]1NC(=O)[C@H]([C@@H](C)CC)NC(=O)[C@@H](NC(=O)[C@@H]2CCCN2C(=O)[C@H](Cc2ccccc2)NC(=O)[C@H](Cc2c[nH]cn2)NC(=O)[C@@H](NC(=O)[C@H](CC(=O)O)NC(=O)CC(C)C)[C@@H](C)O)CSSC[C@@H](C(=O)N[C@@H](CCCCN)C(N)=O)NC(=O)CNC(=O)[C@H](CCCCN)NC(=O)[C@H](CO)NC(=O)[C@H](CCCNC(=N)N)NC(=O)[C@@H]2CCCN2C(=O)[C@H](CCC(=O)O)NC(=O)[C@H](Cc2ccccc2)NC1=O)C(=O)O		healthy volunteers, plasma	subcutaneous, 45 mg single, lyophilised formulation		Vz/F	54.2 ± 32 L
CC(C)[C@@H](CN1CC[C@@](C)(c2cccc(O)c2)[C@@H](C)C1)NC(=O)[C@H]1Cc2ccc(O)cc2CN1		Sprague-Dawley rat, plasma	intraperitoneal, 10 mg/kg		AUCtotal	4420 ng·h/mL
CN1C[C@H](COc2nccc3c(NCc4ccco4)cc(Cl)nc23)OC1=O		rabbit NZW female, isolated Langendorff heart	10 µM, 15 min		RR interval	404 ms
COc1cc(C)c(-c2c(C)cc(OC)c3c(=O)cc(-c4ccc(N(C)C)cc4)oc23)c2oc(-c3ccc(N(C)C)cc3)cc(=O)c12	reverse phase HPLC	DMSO	25 mg/mL, 24 h, 40 °C		purity	96%
COc1ccc2[nH]c([S+]([O-])Cc3ncc(C)c(OC)c3C)nc2c1 (centres unmarked)		healthy Chinese volunteers, plasma	oral, 20 mg, fed, CYP2C19 normal metabolizers		AUC(0-t)	425 ± 560 ng·h/mL
Cc1ccc([C@@H]2O[C@H](CO)[C@@H](O)[C@H](O)[C@H]2O)cc1Cc1ccc(-c2ccc(F)cc2)s1	item: inorganic phosphorus	Japanese type 2 diabetes patients	100 mg, day 2, 24 h urine collection	baseline: baseline	urinary phosphate excretion change	51 mg
COc1cc(N2CCC3(CCN(C)CC3)CC2)ccc1Nc1ncc(Cl)c(Nc2ccccc2P(C)(C)=O)n1	population PK model	human	oral, fed, final model	baseline: fasting	Ka	58.8%
Cc1ccc(C(=O)N(CCCN)C(c2nc3snc(C)c3c(=O)n2Cc2ccccc2)C(C)C)cc1 (centres unmarked)	hypophosphataemia grade ≥3 (CTCAE)	human patients	intravenous, 18 mg/day		patients with adverse event	0%
O=C(O)CC(O)(CC(=O)O)C(=O)O		Wistar rat	175 and 1000 mg/kg, weeks 2 and 4		body weight	decreased
CN1CCN(C(=O)[C@H](CCCN[C@@H]2C[C@H]2c2ccc(F)cc2)NC(=O)c2ccc(-n3ccnn3)cc2)CC1		C57BL/6 mice	oral, 40 to 60 mg/kg/day, 7 days		mean platelet volume	increased
CNC(=O)c1ccc(-c2cnc3ncc(Cc4ccc5ncccc5c4)n3n2)cc1F		Japanese patients	oral, 400 mg, grade 3/4		Pyelonephritis dose reduction/interruption	1%
N#CC(Cc1ccc(O)cc1)c1ccc(O)cc1 (centres unmarked)		female Long-Evans rats, serum	subcutaneous, 5.2 µmol/kg		dose-normalised Cmax	0.1 µM per µmol/kg

Excerpt of the above:
SMILES	assay	test system	setting	how to read	endpoint	value
FC(F)(F)c1ccc(CNc2ccc(Cc3c[nH]c4ncc(Cl)cc34)cn2)cn1	item: Insomnia	patients with advanced solid tumours, non-TGCT cohort	oral, 1000 mg/day, grade 3 or higher		treatment-related adverse events	2%
CCCCCCCCCCCCCCCC(=O)N[C@@H](CCC(=O)NCCCC[C@@H]1NC(=O)[C@H]([C@@H](C)CC)NC(=O)[C@@H](NC(=O)[C@@H]2CCCN2C(=O)[C@H](Cc2ccccc2)NC(=O)[C@H](Cc2c[nH]cn2)NC(=O)[C@@H](NC(=O)[C@H](CC(=O)O)NC(=O)CC(C)C)[C@@H](C)O)CSSC[C@@H](C(=O)N[C@@H](CCCCN)C(N)=O)NC(=O)CNC(=O)[C@H](CCCCN)NC(=O)[C@H](CO)NC(=O)[C@H](CCCNC(=N)N)NC(=O)[C@@H]2CCCN2C(=O)[C@H](CCC(=O)O)NC(=O)[C@H](Cc2ccccc2)NC1=O)C(=O)O		healthy volunteers, plasma	subcutaneous, 45 mg single, lyophilised formulation		Vz/F	54.2 ± 32 L
